Measured values collected from several papers.
± marks the error that the study gave.

For `COc1ccc(-c2oc3ccccc3c(=O)c2OCc2ccccc2)cc1`, the blood glucose was 139 ± 5.61 mg/dL (diabetic rat; 7.5 mg/kg, day 28, p-nitrophenyl β-glucoside induced).
For `O=C1/C(=C/c2ccc(O)cc2)Oc2cc(O)c3c(oc4cc(O)c(O)cc43)c21`, the EC50 was greater than 20000 µM (DPPH scavenging, absorbance).
The Hill coefficient of `CC(C)(O)c1ncc([S@](N)(=O)=NC(=O)Nc2c3c(cc4c2CCC4)CCC3)s1` is reported as 0.715 (IL-1β release, Bayesian PK/PD model; healthy humans, whole blood ex vivo; Emax fixed at 1, with: LPS).
With `COc1cc(CN2CCN(c3ccccc3Cl)CC2)c2cc3[n+](cc2c1O)CCc1cc2c(cc1-3)OCO2` the IC50 was 6.33 µg/mL (ABTS scavenging, absorbance; 10 min).
Under “log2 fold change”, `C=C(c1cc(F)c(C(=O)O)c(F)c1)c1cc2c(cc1C)C(C)(C)CCC2(C)C` is recorded as 0.79 (RNA sequencing, measured: Lyve1; rat, brain; dose not given, 24 h; reference: vehicle).
With `CSCC[C@@H]1NC(=O)[C@H](CCCCN)NC(=O)[C@H]([C@@H](C)O)NC(=O)[C@H](CCCCN)NC(=O)[C@H](CC(C)C)NC(=O)[C@H](CCCCN)NC(=O)[C@H](CCCNC(=N)N)NC(=O)[C@@H]2CSSC[C@@H]3NC(=O)[C@@H]4CCCN4C(=O)[C@H](C(C)C)NC(=O)[C@H](CCC(N)=O)NC(=O)[C@H](CCC(N)=O)NC(=O)CNC(=O)[C@H](CC(C)C)NC(=O)[C@@H]4CSSC[C@H](NC(=O)[C@H]([C@@H](C)O)NC(=O)[C@H](C)NC(=O)[C@H](CSSC[C@@H](C(=O)N[C@@H](CO)C(=O)N[C@@H](CCCNC(=N)N)C(=O)N[C@H](C(N)=O)[C@@H](C)O)NC(=O)[C@@H]5CCCN5C(=O)[C@H](CC(N)=O)NC1=O)NC(=O)[C@@H]1CCCN1C(=O)[C@H](CC(=O)O)NC(=O)[C@H](CSSC[C@H](NC(=O)[C@H](CCCNC(=N)N)NC(=O)[C@H](CCCNC(=N)N)NC(=O)[C@H](CO)NC(=O)[C@@H](N)CO)C(=O)N[C@@H](C(C)C)C(=O)N[C@@H](CCCNC(=N)N)C(=O)N[C@@H](CC(C)C)C(=O)N[C@@H](Cc1c[nH]cn1)C(=O)N[C@@H](CCC(=O)O)C(=O)N[C@@H](CO)C(=O)N4)NC3=O)C(=O)N[C@@H](Cc1ccc(O)cc1)C(=O)N[C@H]1CSSC[C@H](NC(=O)[C@H](Cc3ccccc3)NC(=O)[C@H](C)NC(=O)[C@H](CC(N)=O)NC(=O)[C@H](Cc3ccccc3)NC(=O)[C@H](Cc3ccccc3)NC(=O)[C@H](CCCNC(=N)N)NC1=O)C(=O)N[C@@H](Cc1ccc(O)cc1)C(=O)N2` the food intake was 44.5 ± 3.1 % above saline (male Long-Evans rats; intracerebroventricular, 1.0 nmol, day 5; reference: saline).
Under “CD3+CD4+ T cells”, `CC(=O)Nc1ccc(OC(=O)CCC(=O)[O][Pt-2]23([O]C(=O)CCC(=O)Oc4ccc(NC(C)=O)cc4)([NH2+][C@@H]4CCCC[C@H]4[NH2+]2)[O]C(=O)C(=O)[O]3)cc1` is recorded as 25.7% (BALB/c mouse, 4T1 tumour, spleen; dose not given).
`Cc1nc(C)c(C=[N+]([O-])C(C)(C)C)nc1C`: “protein level increase” 54.4% (Western blot, measured: Akt phospho-Ser473; mouse, MPTP model; 90 mg/kg).
With `O=C1/C(=C/c2ccccc2)Oc2c1c(O)cc1oc3cc(O)c(O)cc3c21` the EC50 was greater than 20000 µM (DPPH scavenging, absorbance).
With `COC(=O)C=CCCC(NC(=O)c1ccncc1C(=O)O)C(=O)NC(C(=O)N1CC(=O)CC1C(=O)NC(C(=O)NC(C(N)=O)C1CCCCC1)C1CCCCC1)C(C)(C)C` (centres unmarked) the thrombus weight was 29 ± 6 mg (New Zealand White rabbit; dose not given, 135 min, venous stasis).
Under “amyloid oligomer area ratio”, `CCCCCCCCCCCCCCCC(=O)OCC(CSC[C@H](N)C(=O)N[C@@H](CO)C(=O)N[C@@H](CCCCN)C(=O)N[C@@H](CCCCN)C(=O)N[C@@H](CCCCN)C(=O)N[C@@H](CCCCN)C(=O)NCCCCCC(=O)N[C@@H](CCCCN)C(=O)N[C@@H](CC(C)C)C(=O)N[C@H](C(=O)N[C@@H](Cc1ccccc1)C(=O)N[C@@H](Cc1ccccc1)C(=O)N[C@@H](Cc1ccc2ccccc2c1)C(=O)O)C(C)C)OC(=O)CCCCCCCCCCCCCCC` (some centres unmarked) is recorded as 0.55 ± 0.13 (measured: OC-positive amyloid; APP/PS1 mouse, 13 months; intracortical, 100 µM, 300 nL, 5 d; reference: injected over adjacent side).
`O=c1c(OCc2ccccc2)c(-c2cccc([N+](=O)[O-])c2)oc2ccccc12` has a blood glucose of 336 ± 4.48 mg/dL (diabetic rat; 7.5 mg/kg, day 7, p-nitrophenyl β-glucoside induced).
`COc1cc(CN2CCN(c3ccc(F)cc3)CC2)c2cc3[n+](cc2c1O)CCc1cc2c(cc1-3)OCO2` has an IC50 of 4.64 µg/mL (ABTS scavenging, absorbance; 10 min).
For `CCOP(=O)(CC(=O)Nc1ccc(S(=O)(=O)N(CC(N)=O)c2ccc(N(CC(N)=O)S(=O)(=O)c3ccc(OC)cc3)c3ccccc23)cc1)OCC`, total distance read “no effect” (open field test; APP/PS1 mice; intragastric, 40 mg/kg once daily, 60 days, 5 min test, lentivirus intracerebroventricular).
For `Clc1ccc2[nH]c(-c3ccco3)nc2c1`, the IC50 was 1.38 µM (ABTS scavenging, absorbance).
Under “T/C relative tumour volume”, `COc1cc(/C=C/C(=O)NCCCCCCNC2=C3C[C@@H](C)C[C@H](OC)[C@H](O)[C@@H](C)/C=C(\C)[C@H](OC(N)=O)[C@@H](OC)/C=C\C=C(/C)C(=O)NC(=CC2=O)C3=O)ccc1O` is recorded as 29.7% (MDA-MB-231, mouse xenograft; intravenous, 10 mg/kg every three days, 15 d).
`C[C@@H](O)[C@@H]1NC(=O)[C@H](CCCCN)NC(=O)[C@@H](Cc2ccc(NC(N)=O)cc2)NC(=O)[C@H](Cc2ccc(NC(=O)[C@@H]3CC(=O)NC(=O)N3)cc2)NC(=O)[C@H](NC(=O)[C@H](Cc2ccc(Cl)cc2)NC(=O)CN2CCN(CC(=O)O)CCN(CC(=O)O)CCN(CC(=O)O)CC2)CSSC[C@@H](C(=O)N[C@H](Cc2ccc(O)cc2)C(N)=O)NC1=O` [gallium-68 labelled] has an SUVpeak of 5 ± 2 (PET/CT; human neuroendocrine tumour patients, bone lesions; 60 min).
`COc1cc2c(cc1OC)-c1cc3ccc(OC)c(OC)c3c[n+]1CC2` has a triglycerides of 115 ± 3.81 mg/dL (rat, STZ-induced diabetic, serum; oral, 12 mg/kg, day 28).
`CCOc1ccc(C[C@@H]2NC(=O)[C@@H](N)CSSC[C@@H](C(=O)N3CCC[C@H]3C(=O)N[C@@H](CC(C)C)C(=O)NCC(N)=O)NC(=O)[C@H](CC(N)=O)NC(=O)[C@H](CCC(N)=O)NC(=O)[C@H]([C@@H](C)CC)NC2=O)cc1` has a pA2 of 6.81 (antagonist; Bufo marinus urinary bladder; with: deamino-oxytocin).
The pA2 of `CC(C)[C@@H]1NC(=O)[C@H](Cc2ccccc2)NC(=O)[C@]2(CC[C@H](c3ccccc3)CC2)NC(=O)[C@@H](N)CSSC[C@@H](C(=O)N2CCC[C@H]2C(=O)N[C@@H](CCCNC(=N)N)C(=O)NCC(N)=O)NC(=O)[C@H](CC(N)=O)NC1=O` is reported as 8.22 (anti-oxytocic activity, antagonist; isolated rat uterus strips; without Mg2+).
For `CCN(CC)CCn1nc(C23CC4CC(CC(C4)C2)C3)n(C)c1=S`, “inhibition in vivo” read 17.3% (paw oedema; rat; intraperitoneal, 20 mg/kg).
`O=c1cc(-c2ccc(O)cc2)oc2cc(O)c(-c3ccc(O)c(O)c3)c(O)c12` has an EC50 of 70 µM (DPPH scavenging, absorbance).
For `COC(=O)C(Cc1c[nH]cn1)NC(=O)C1(C)C(O)CCC2(C)C1CCC1(C)C2CC=C2C3C(C)C(C)CCC3(C)CCC21C` (centres unmarked), “clinical activity score” read 2.66 ± 0.57 (rat TNBS-induced colitis; oral, dose not given, day 7; direction not given).
`CC[C@@H](C)N([11CH3])C(=O)c1nc(-c2ccc(Cl)cc2)c2ccccc2n1` — result for “TSPO specific binding”: 89% (PET from VT/fP; rhesus monkey, cerebellum; dose not given).
With `COc1ccc(C2CC(c3ccc(C)cc3)=Nc3ccccc3S2)cc1OC` (centres unmarked) the blood glucose was 109 ± 4.56 mg/dL (rat, normal, overnight fasted; oral, 20 mg/kg, 60 min, oral glucose tolerance test, with: glucose 3 g/kg oral).
For `CC1=C(O)C(=O)C=C2C1=CC=C1[C@@]2(C)CC[C@@]2(C)[C@@H]3C[C@](C)(C(=O)NCCOCCOCCOCCOCC(=O)N[C@H](C(=O)N4C[C@H](O)C[C@H]4C(=O)N[C@@H](C)c4ccc(-c5scnc5C)cc4)C(C)(C)C)CC[C@]3(C)CC[C@]12C`, “tumour-infiltrating B cells” read “increased” (flow cytometry; mouse, Yumm1.7 melanoma model, tumour; ip, 2 doses of 1.8 mg/kg).
`Cc1ccc(-c2oc3ccccc3c(=O)c2OCc2ccccc2)cc1` has a blood glucose of 401 ± 5.12 mg/dL (diabetic rat; 7.5 mg/kg, day 1, p-nitrophenyl β-glucoside induced).
`CCCCCCOC(=O)Cc1c(C)n(C(=O)c2ccc(Cl)cc2)c2ccc(OC)cc12`: “latency of nociceptive response” 14.4 ± 1.29 s (hot plate test; BALB/c mice; 75 mg/kg, 30 min).
`Cc1cc(O)c(C=O)c2c1C(=O)Oc1c(CO)c(O)c3c(c1O2)C(O)OC3=O` (centres unmarked) has an IC50 of 121 µM (ABTS scavenging).
`CC(C)C[C@@H]1NC(=O)[C@@H]2CSSC[C@@H]3NC(=O)[C@H]([C@@H](C)O)NC(=O)[C@H](C)NC(=O)[C@H](C)NC(=O)[C@@H]4CCCN4C(=O)[C@H](CC(=O)O)NC(=O)[C@H](CSSC[C@H](NC(=O)[C@H](CCCNC(=N)N)NC(=O)[C@H](CCCNC(=N)N)NC(=O)[C@H](CO)NC(=O)[C@@H](N)CO)C(=O)N[C@@H](C(C)C)C(=O)N[C@@H](CCCNC(=N)N)C(=O)N[C@@H](CC(C)C)C(=O)N[C@@H](Cc4c[nH]cn4)C(=O)N[C@@H](CCC(=O)O)C(=O)N[C@@H](CO)C(=O)N2)NC(=O)[C@H](CSSC[C@@H](C(=O)N[C@@H](CCCNC(=N)N)C(N)=O)NC(=O)[C@H](Cc2ccc(O)cc2)NC(=O)[C@@H]2CSSC[C@H](NC(=O)[C@H](Cc4ccc(O)cc4)NC3=O)C(=O)N[C@@H](CCCNC(=N)N)C(=O)N[C@@H](Cc3ccccc3)C(=O)N[C@@H](Cc3ccccc3)C(=O)N[C@@H](CC(N)=O)C(=O)N[C@@H](C)C(=O)N[C@@H](Cc3ccccc3)C(=O)N2)NC(=O)[C@@H]2CCCN2C(=O)[C@H](C(C)C)NC(=O)[C@H](CCC(N)=O)NC(=O)[C@H](CCC(N)=O)NC(=O)CNC1=O` gave a food intake of 13.5 ± 1.5 % above saline (Long-Evans rat, male; intracerebroventricular, 1.0 nmol, day 3, non-cumulative; reference: saline).
With `O=c1c(OCc2ccccc2)c(-c2ccc([N+](=O)[O-])cc2)oc2ccccc12` the blood glucose was 165 ± 4.88 mg/dL (diabetic rat; 5 mg/kg, day 28, p-nitrophenyl β-glucoside induced).
`CC[C@H]1[C@@H](O)[C@@H]2[C@H](CC[C@]3(C)[C@@H]([C@H](C)CCOS(=O)(=O)[O-])CC[C@@H]23)[C@@]2(C)CC[C@@H](O)C[C@@H]12.[Na+]` has a steatosis score of 1.8 ± 0.2 (histology; ob/ob NASH mouse model, liver; oral, 10 mg/kg once daily, 8 weeks, scale 0 to 3; direction not given).
Under “chemokine mRNA level”, `O=C(Nc1nc2cc(C(F)(F)F)cc(NC3CC3)n2n1)c1cccnc1` is recorded as “no effect” (measured: MCP-1, RANTES, MIP-1α; ASK1 knockout mouse, MOG-induced EAE, spinal cord; 30 mg/kg, day 20 post-immunization; reference: vehicle).
The blood glucose of `CN(C)c1ccc(-c2oc3ccccc3c(=O)c2OCc2ccccc2)cc1` is reported as 468 ± 5.48 mg/dL (diabetic rat; 7.5 mg/kg, day 1, p-nitrophenyl β-glucoside induced).
`O=C(O)[C@H]1O[C@@H](Oc2c(-c3ccc(O)c(O)c3)oc3cc(O)cc(O)c3c2=O)[C@H](O)[C@@H](O)[C@@H]1O` gave an IC50 of 58.9 µg/mL (ABTS scavenging).
`CCc1nnc(NS(=O)(=O)c2ccc(NC(=S)NC(=O)/C=C/c3ccc(F)cc3)cc2)s1` — result for “reduction of CD31-positive vascular area”: 63% (athymic nude mice, SK-N-AS xenograft, tumour; i.p., 10 mg/kg daily, 18 days).
The triglycerides of `COc1ccc(C2CC(c3ccc(C)cc3)=Nc3ccccc3S2)cc1` (centres unmarked) is reported as 142 ± 4.39 mg/dL (Wistar rat, STZ-induced diabetes, serum; 10 mg/kg, 28 days).
`O=c1c(OCc2ccccc2)c(-c2ccc(Cl)cc2)oc2ccccc12` has a blood glucose of 236 ± 4.97 mg/dL (diabetic rat; 7.5 mg/kg, day 14, p-nitrophenyl β-glucoside induced).

Repeated from above:
For `CCN(CC)CCn1nc(C23CC4CC(CC(C4)C2)C3)n(C)c1=S`, “inhibition in vivo” read 17.3% (paw oedema; rat; intraperitoneal, 20 mg/kg).
`O=c1cc(-c2ccc(O)cc2)oc2cc(O)c(-c3ccc(O)c(O)c3)c(O)c12` has an EC50 of 70 µM (DPPH scavenging, absorbance).
For `COC(=O)C(Cc1c[nH]cn1)NC(=O)C1(C)C(O)CCC2(C)C1CCC1(C)C2CC=C2C3C(C)C(C)CCC3(C)CCC21C` (centres unmarked), “clinical activity score” read 2.66 ± 0.57 (rat TNBS-induced colitis; oral, dose not given, day 7; direction not given).
